# Results pooled from the literature.
# A part holds a random share of what one study measured. Substitutions count along the parent as printed.

# Set 1
# Target: Fragile X messenger ribonucleoprotein 1, C-terminal low-complexity region (Fmr1, Mus musculus, UniProt P35922)
# Technique: RNA Bind-n-Seq
# Form: RNA
# Medium: in vitro
# Concentration: 200 nM
# Notes: whole 134-nt RNA, ends assumed
# Together with: 150 mM LiCl
# Relative to: input library
# Reading: higher = stronger binding
# Each molecule: 7-deaza-guanosine replaces G
Strand,log2 enrichment
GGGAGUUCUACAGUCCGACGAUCCCUGUGCUACACAUCGUAUGUACCGAAUCGGGGUUUUUUGGUUUUUUGGGGUUUUUUGGGGAAAGUAUUAUGUUACGCCGUUCGGAUCUGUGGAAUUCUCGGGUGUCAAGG,-1.1
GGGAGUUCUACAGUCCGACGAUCAGUCCUGUGCUACACAUCGUAUGUACCGAAUCGGUUUUUGGUUUUUGGGGUUUUUGGAAAGUAUUAUGUUACGCCGUUCGGAUCUGCACUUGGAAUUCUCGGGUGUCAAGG,-1.98
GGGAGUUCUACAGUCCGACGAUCUCCUGUGCUACACAUCGUAUGUACCGAAUCAAAGUGUGUGUGUGUGUGUGUGUGUGUAAAAAAGUAUUAUGUUACGCCGUUCGGAUCUGCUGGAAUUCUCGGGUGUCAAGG,-0.601
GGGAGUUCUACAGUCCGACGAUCUUUGCUUGCAGUAUCUGUUUCUCUUCCUAGGCUCAAGUUGGUGACCCAAGCCUAUUGUAAACAAGUGAUUAUCUCAAAGGGAGAUGCCAAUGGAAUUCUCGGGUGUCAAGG,-1.16
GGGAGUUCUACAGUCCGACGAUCUCAAGUCCUGUGCUACACAUCGUAUGUACCGAAUCGGGUUUGGGUUUGGUUUGGGAAAGUAUUAUGUUACGCCGUUCGGAUCUGCACUUCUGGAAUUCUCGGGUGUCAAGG,-1.29
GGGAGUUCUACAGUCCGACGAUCCUCAAGUCCUGUGCUACACAUCGUAUGUACCGAAUCGGGAAGGGAAGGAAGGGGAAAGUAUUAUGUUACGCCGUUCGGAUCUGCACUUCCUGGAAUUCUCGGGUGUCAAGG,-0.496
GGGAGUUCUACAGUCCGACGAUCCAAGUCCUGUGCUACACAUCGUAUGUACCGAAUCGGGGAAGGGGAAGGGGAAGGGAAAGUAUUAUGUUACGCCGUUCGGAUCUGCACUUCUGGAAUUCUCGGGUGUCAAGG,-0.0432
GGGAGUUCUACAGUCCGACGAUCUGGGAGGUGGAUUUUGUGUAUUUUUUUAGCUCAUUUCCAGGGGUGGGAAUUUUUUUUUAAUAUGUGUCAUGAAUAAAGUUGUUUUUGAAAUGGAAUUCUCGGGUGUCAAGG,0.422

# Set 2
# Target: ABI1, truncated, D143A, DHFR fusion (Arabidopsis thaliana)
# Technique: DHFR PCA, deep sequencing
# Medium: yeast
# Notes: methotrexate growth selection, single substitutions
# Together with: (+)-ABA 0 µM
# Relative to: wild-type fitted maximum
# Reading: higher = stronger binding
# Starting sequence: PYL1, truncated, DHFR fusion (Arabidopsis thaliana); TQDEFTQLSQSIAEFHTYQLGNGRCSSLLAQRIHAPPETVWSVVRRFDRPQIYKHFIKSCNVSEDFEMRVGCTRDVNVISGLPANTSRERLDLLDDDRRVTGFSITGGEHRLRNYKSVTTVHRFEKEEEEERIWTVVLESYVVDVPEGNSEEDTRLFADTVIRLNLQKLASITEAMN; partner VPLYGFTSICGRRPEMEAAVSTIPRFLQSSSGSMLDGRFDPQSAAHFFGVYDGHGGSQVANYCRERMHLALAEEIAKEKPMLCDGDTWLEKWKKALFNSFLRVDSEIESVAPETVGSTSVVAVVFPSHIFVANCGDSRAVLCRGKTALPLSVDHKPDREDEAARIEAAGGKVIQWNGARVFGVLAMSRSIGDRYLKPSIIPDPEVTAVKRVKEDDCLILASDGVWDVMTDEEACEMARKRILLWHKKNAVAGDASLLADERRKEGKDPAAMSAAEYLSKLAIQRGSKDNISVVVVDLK
Variant,relative binding score [%]
Y53A,-1.57
E38F,-8.01
S140T,8.81
A175M,20.8
K58V,-1.64
K54S,2.95
M68R,-0.692
R99N,-0.218
R163C,-4.73
I33M,4.25
R132T,36.5
L93H,-1.39
C25E,0.959
V137Y,-10.5
R155W,1.32
E130Y,4.73
E109M,3.05
S9F,5.66

# Set 3
# Target: CCNA1, cyclin fold, Cln2 fusion (human)
# Technique: yeast growth competition, sequencing
# Medium: yeast
# Notes: weak parent motif
# Relative to: not given
# Reading: higher = stronger binding
# Starting sequence: WEE1 docking peptide (human); HKTFRKLRLFDTP; partner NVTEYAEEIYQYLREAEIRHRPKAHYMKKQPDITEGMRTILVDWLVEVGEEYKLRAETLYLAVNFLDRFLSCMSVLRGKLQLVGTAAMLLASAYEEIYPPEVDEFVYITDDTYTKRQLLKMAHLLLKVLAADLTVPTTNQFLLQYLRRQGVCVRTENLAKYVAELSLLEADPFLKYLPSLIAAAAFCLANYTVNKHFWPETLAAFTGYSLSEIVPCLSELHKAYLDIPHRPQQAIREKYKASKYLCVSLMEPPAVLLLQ
Variant,normalised enrichment score
P13V,0.432
K2S,0.0526
L7Q,0.627
L7G,0.775
H1Y,0.00925
K2Q,0.269
L7F,0.143
R5Q,0.243
R8E,0.598
T3D,0.173
T3L,0.0802
T3R,0.237
R8V,0.181
L7C,0.622
T3S,-0.0286
R5P,-0.226
H1N,0.366
F10T,0.227

# Other studies, line by line
Substance,target,test,system,conditions,scale,endpoint,result
"PhoQ, residues 284 288 289 292 302 303 TLSLKA","PhoP, residues 12 14 15 18 19 NQGLL (Escherichia coli, UniProt P23836)","Sort-seq, item: YFP reporter",E. coli,"PhoQ-PhoP variant library, together with: 10 µM Mg2+","relative to: high Mg2+ state, higher = stronger signaling",fold induction,3.36
